# Results pooled from the literature.
# Every numbered part comes from another study and shows a few of its results, in no order.

# Study 1
# Target: Interferon regulatory factor 3, full length, phosphomimetic (IRF3, Homo sapiens, UniProt Q14653, residues 1-427, S386D/S396D/S398D/S402D/T404D/S405D)
# Method: protein-binding microarray
# Form: double-stranded DNA, one strand shown
# Sample: in vitro
# Concentration: 2540 nM top
# Setting: 60-bp whole probe
# Added: salmon DNA 0.4 mg/ml
# Reference: random background probes
# Direction: higher = stronger binding
# Shared flanks, not repeated: GCCTAGCAC … GTCTTGATTCGCTTGACGCTGCTG
# Residues (chain): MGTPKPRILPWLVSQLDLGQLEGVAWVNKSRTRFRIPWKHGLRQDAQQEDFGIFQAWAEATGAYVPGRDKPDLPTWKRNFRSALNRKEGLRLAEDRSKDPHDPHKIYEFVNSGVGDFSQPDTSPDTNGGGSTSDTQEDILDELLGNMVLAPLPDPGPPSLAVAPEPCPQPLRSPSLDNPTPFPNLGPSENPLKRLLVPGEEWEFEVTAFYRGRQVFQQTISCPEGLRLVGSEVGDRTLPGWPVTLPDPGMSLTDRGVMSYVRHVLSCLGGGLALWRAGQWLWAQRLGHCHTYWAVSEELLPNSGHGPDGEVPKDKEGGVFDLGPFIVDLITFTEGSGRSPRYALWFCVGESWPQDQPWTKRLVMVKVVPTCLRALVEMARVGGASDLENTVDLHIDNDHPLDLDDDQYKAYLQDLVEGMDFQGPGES
Oligonucleotide,fitted relative affinity [z-score]
GACGGTTTCCTTTCCCTGATGTGCTAG,9.75
GACGGACTGGGTATCGGGTCGTGCTAG,0.0175
ATTTTTTTCTAATTGAAATCGTGCTAG,1.51
TGAGGTTTCGGTATCGGTTAGTGCTAG,8.67
GACTGTCTCGGTTTCGGGACGTGCTAG,3.77
TCACCTCTAGACTCTAAAACTGTGCTA,0.179
GACAATATCGGGTTTCGAGACGTGCTA,1.26
TTACATCTCAGACTGGATTAGTGCTAG,0.507
GACGATCTCCTTCTCCTGACGTGCTAG,2.53
TTAGGTTTCCCTCTCCTTTAGTGCTAG,7.89
TCATCTCAGAATCTCTCACTGTGCTAG,1
TACGATTTCAGTTTCGAGACGTGCTAG,4.31
TCATGACTCCCTCTCTGACTGTGCTAG,0.287
GACGATATCGGGTTTCGAGCCGTGCTA,0.67
TTAGGACTAGGGTATCGGTTAGTGCTA,0.136
GTCGAACTGGGGTTTCGAGACGTGCTA,0.653
TTAGATTTCAGTTTCGGTTAGTGCTAG,6.55
TTTTTTTTTTTTTTTACTTCGTGCTAG,1.69
TTACGTTTCGACTTTCGGTTAGTGCTA,3.52
TACGGTTTCCTTTTCCTGACGTGCTAG,10.5
TACGGTATCGACACTGGGGACGTGCTA,0.464
CGGGGGTGGGGAGAGCCCCTGTGCTAG,-0.433
GACGGTATCGGGACTTGGGACGTGCTA,1.43
TTAGGACTGTTACTGCTTTAGTGCTAG,-0.427
CTGATTTCCACTTTCTTAATGTGCTAG,3.19

# Study 2
# Target: Sal-like protein 4, full length isoform A (SALL4, Homo sapiens, UniProt Q9UJQ4, residues 1-1053)
# UniProt Q9UJQ4, sequence (whole entry, looked up): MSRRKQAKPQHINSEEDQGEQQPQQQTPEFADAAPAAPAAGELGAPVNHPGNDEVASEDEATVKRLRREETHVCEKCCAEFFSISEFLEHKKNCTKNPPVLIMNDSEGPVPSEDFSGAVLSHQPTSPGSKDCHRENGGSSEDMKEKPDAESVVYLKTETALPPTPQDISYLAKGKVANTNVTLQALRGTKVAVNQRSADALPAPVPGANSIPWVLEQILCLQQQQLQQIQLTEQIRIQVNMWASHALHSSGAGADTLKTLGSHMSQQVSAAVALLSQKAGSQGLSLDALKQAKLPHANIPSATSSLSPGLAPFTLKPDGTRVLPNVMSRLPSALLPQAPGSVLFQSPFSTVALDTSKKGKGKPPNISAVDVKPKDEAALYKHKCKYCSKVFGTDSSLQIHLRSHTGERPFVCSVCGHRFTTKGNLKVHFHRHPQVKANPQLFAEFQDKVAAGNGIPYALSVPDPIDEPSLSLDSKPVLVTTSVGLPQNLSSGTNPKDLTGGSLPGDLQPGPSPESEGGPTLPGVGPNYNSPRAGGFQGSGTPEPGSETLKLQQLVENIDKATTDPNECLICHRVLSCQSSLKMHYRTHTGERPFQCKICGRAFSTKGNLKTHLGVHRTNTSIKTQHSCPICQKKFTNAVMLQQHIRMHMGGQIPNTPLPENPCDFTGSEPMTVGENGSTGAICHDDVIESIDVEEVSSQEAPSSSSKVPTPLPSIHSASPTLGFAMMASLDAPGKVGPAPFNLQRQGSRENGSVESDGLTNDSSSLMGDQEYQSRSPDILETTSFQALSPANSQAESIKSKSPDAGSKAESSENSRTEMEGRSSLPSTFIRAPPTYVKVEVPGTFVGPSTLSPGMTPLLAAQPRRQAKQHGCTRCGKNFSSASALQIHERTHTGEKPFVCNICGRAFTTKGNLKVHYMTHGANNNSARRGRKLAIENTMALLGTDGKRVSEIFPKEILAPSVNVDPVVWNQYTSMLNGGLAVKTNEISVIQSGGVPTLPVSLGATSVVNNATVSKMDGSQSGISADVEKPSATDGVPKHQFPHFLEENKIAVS
# Method: universal PBM
# Form: double-stranded DNA, one strand shown
# Sample: in vitro
# Concentration: 600 nM
# Setting: 8-mer, flanks averaged, mean of replicates
# Direction: higher = stronger binding
Oligonucleotide,E-score
CAAGCTAC,-0.113
AGGGAAAA,0.215
CGGCGCTC,-0.313
CTACACAA,0.116
GCTGTGGA,-0.0615
ATGTAAAG,0.182
ATCTCGTC,-0.161
ATTAACGG,0.123
AGGGCTGC,-0.278
GTACTGCA,-0.0567
CTAATCAA,0.189
AATTCTCG,0.0995
AGTGCTAC,-0.00643
ACCACTCG,-0.172
CGAAAACG,-0.122
ATCAGTAG,0.032
GAACCCGA,-0.292
GATAGCTA,0.0696
ATTTATCC,0.317
GATGGTTA,0.0983
CCGAAGGC,-0.227
ATCCTCAA,0.111
CGGGCTTA,-0.197
CAGCCATC,-0.221
AACGCGAG,-0.0468

# Study 3
# Target: Fragile X messenger ribonucleoprotein 1, C-terminal low-complexity region (Fmr1, Mus musculus, UniProt P35922)
# Method: RNA Bind-n-Seq
# Form: RNA
# Sample: in vitro
# Concentration: 200 nM
# Setting: whole 134-nt RNA, ends assumed
# Added: 150 mM LiCl
# Reference: input library
# Direction: higher = stronger binding
# Each molecule: 7-deaza-guanosine replaces G
# Shared flanks, not repeated: GGGAGUUCUACAGUCCGACGAUC … UGGAAUUCUCGGGUGUCAAGG
Oligonucleotide,log2 enrichment
UCCUGUGCUACACAUCGUAUGUACCGAAUCGGGCCCCCGGGCCCCCGGGGCCCCCGGGGAAAGUAUUAUGUUACGCCGUUCGGAUCUGCA,-2.68
CUGUGCUACACAUCGUAUGUACCGAAUCGGGUUUUUUUGGUUUUUUUGGGGUUUUUUUGGGAAAGUAUUAUGUUACGCCGUUCGGAUCUG,0.392
CAAGUCCUGUGCUACACAUCGUAUGUACCGAAUCGGUUUUUGGAGGUUUUUUUGGAAAGUAUUAUGUUACGCCGUUCGGAUCUGCACUUC,-1.15
GUCCUGUGCUACACAUCGUAUGUACCGAAUCGGGGAAAAAGGAAAAAGGGGAAAAAGGGAAAGUAUUAUGUUACGCCGUUCGGAUCUGCA,0.521
UAGCUAAACUAAUGUCAACUUAUUUCCUUUUUUCCUUUAGCCACCAUCAAAGAACAGACGAGAGAGAACAGAACUGAAGCCUGAUUUCUU,-1.28
ACCAUGCAGGUGGGCAUCUUUGGGAAGUGGGGCAAGGGGGGGAUAGGGAAGGGGGUAACACUUUGGGAACAGGUGGUCCCAGGUCGUUUC,1.08
CAAGUCCUGUGCUACACAUCGUAUGUACCGAAUCGGGGUGGGGAGGGGAAAGGGGAAAGUAUUAUGUUACGCCGUUCGGAUCUGCACUUC,-0.211
UAACUUUAGAGGAGGAUCUGAUGGAUAUGGCAGUGGACGUGGAUUUGGGGAUGGCUAUAAUGGGUAUGGAGGAGGACCUGGAGGUGGGAA,1
UGUGCUACACAUCGUAUGUACCGAAUCGGGUUUUUUUGGGGUUUUUUUGGGGUUUUUUUGGGAAAGUAUUAUGUUACGCCGUUCGGAUCU,1.44
AAGUCCUGUGCUACACAUCGUAUGUACCGAAUCGGGGCCCGGGCCCGGGGCCCGGGAAAGUAUUAUGUUACGCCGUUCGGAUCUGCACUU,-2.6
GCUGGAAGUAAAAACAAAUGGAAAUGCUUCGGAUAGUGGCAGGGGUGGGGGUUGCUAAGGAAAGGGUGGGAUGGGAGUGGGUAAAGAGUU,1.5

# Study 4
# Target: Histone acetyltransferase KAT6A, winged helix 1, GST fusion (KAT6A, Homo sapiens, UniProt Q92794, residues 1-85)
# Method: protein binding microarray
# Form: double-stranded DNA, one strand shown
# Sample: in vitro
# Concentration: not given
# Setting: 8-mer, flanks averaged, mean of 2 arrays, mostly near background
# Reference: not given
# Direction: higher = stronger binding
# Target sequence (chain): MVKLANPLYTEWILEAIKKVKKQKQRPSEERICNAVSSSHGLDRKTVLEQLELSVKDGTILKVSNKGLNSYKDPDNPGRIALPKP
Oligonucleotide,E-score
CATCACCG,0.106
AATAGTGA,-0.0843
GCCTCGCC,0.0938
ATCTCTTG,-0.278
ACCGGTCT,0.0176
ACACAAAT,-0.222
CCAGACCG,0.134
AACTTCAG,-0.148
AGGCCGGG,0.242
ACTCTTTG,-0.192
AATTGCTG,0.0232
CGGACCCC,0.214
ATACGACG,0.136
CATGCTCA,-0.142
ATCACACA,-0.351
AGGCAGGA,-0.228
CCCGCAGC,0.21
GTTTAGGA,-0.191
CACATCAG,-0.254
GAGATCTA,-0.114
ATGAGTTA,-0.0799
CGCTTGAA,0.0874

# For quick reference, copied from above (study 2):
Oligonucleotide,E-score
AACGCGAG,-0.0468
GAACCCGA,-0.292
GATAGCTA,0.0696
GATGGTTA,0.0983
AGGGCTGC,-0.278
CGGCGCTC,-0.313
GTACTGCA,-0.0567
GCTGTGGA,-0.0615
CAAGCTAC,-0.113
ATTTATCC,0.317
CCGAAGGC,-0.227
